Assay results of several laboratories.
Protocols differ between the studies behind these lines.

COc1ccc(F)cc1C(=O)NCc1ccc(-c2nn([C@@H](C)C(F)(F)F)c(N)c2C(N)=O)cc1  volume of single adjusted compartment (VSAC) (Simcyp parameter estimation; human, plasma; intravenous, 22 µg): 0.17 L/kg
CN(C)CCCNC(=O)/C(=C/CCCCC(=O)NO)COc1cccc2ccccc12  volume of distribution at steady state (human patients; intravenous, 187.5 mg/m2, day 1, single dose, mean): 44.9 L
Nc1ccn([C@@H]2O[C@H](CO)[C@@H](O)C2(F)F)c(=O)n1  volume of distribution (HPLC-UV; human, plasma; 800 mg/m^2, median, before paricalcitol): 231 L/m²
Cc1ccc([C@@H]2O[C@H](CO)[C@@H](O)[C@H](O)[C@H]2O)cc1Cc1ccc(-c2ccc(F)cc2)s1  volume of distribution (human, maintenance hemodialysis patients; oral, 300 mg once daily, steady state, median): 194 L
CN(C)N=Nc1[nH]cnc1C(N)=O  volume of distribution (Vz) (human patients, plasma; intravenous, 1000 mg/m^2 over 1 h, cycle 2 day 1, staggered with twice-weekly co-drug): 37.2 L/m²
NC(=O)N1c2ccccc2CC(O)c2ccccc21 (centres unmarked)  volume of distribution (population PK modelling; human patients, plasma; dose not given, weight-scaled volume and clearance): 36.2 L
CC(=O)O[C@H]1C(=O)[C@@]2(C)[C@H]([C@H](OC(=O)c3ccccc3)[C@]3(O)C[C@H](OC(=O)[C@H](O)[C@@H](NC(=O)c4ccccc4)c4ccccc4)C(C)=C1C3(C)C)[C@]1(OC(C)=O)CO[C@@H]1C[C@@H]2O  volume of distribution (noncompartmental analysis; human cancer patients, plasma; intravenous infusion, 60 mg/m^2, cycle 1 day 15, added: daily oral co-medication): 240 L
COc1c(OCCCN2CCOCC2)ccc2c1N=C(NC(=O)c1cnc(N)nc1)N1CCN=C21  volume of distribution (human; dose not given, compartment 2): 508 L

For quick reference, copied from above:
Cc1ccc([C@@H]2O[C@H](CO)[C@@H](O)[C@H](O)[C@H]2O)cc1Cc1ccc(-c2ccc(F)cc2)s1  volume of distribution (human, maintenance hemodialysis patients; oral, 300 mg once daily, steady state, median): 194 L
